Assay results gathered from unrelated publications.
Compare with care: the assays were run in different laboratories. ± gives the spread as reported.

Compound	assay	system	setting	how to read	quantity	result
O=C(O)CCC(CP(=O)(O)O)C(=O)O (stereo not shown)		rat plasma	28 days, -80 °C, frozen storage		stability	stable
CC1CC(c2ccc(S(N)(=O)=O)cc2)=NN1c1ccc(C#N)c(Cl)c1 (stereo not shown)		PBS	90 min		kinetic solubility	< 1 µM
COS(C)(=O)=O	alkaline comet	female Hsd:ICR (CD-1) mouse, liver	oral, 40 mg/kg/day, positive control		tail DNA	24.4%
CCc1ccc(CC/C=C/c2ccc3c(c2)C(=O)CC3)cc1		Sprague-Dawley rat, female, blood	oral, 30 mg/kg/day, 14 days		platelet distribution width	48.1%
CN1CC[C@@H](c2c(O)cc(O)c3c(=O)cc(-c4ccc(C(F)(F)F)cc4Cl)oc23)[C@@H]1CO	refers to: rectal abscess	B-cell malignancies or AML	oral, 50 mg, grade 3 to 4, continuous dosing		patients with adverse event	0%
C[C@@H]1NC(=O)[C@H](CCCCNC(=O)CO/N=C/C(=O)NCCCC[C@@H]2NC(=O)[C@@H](Cc3ccccc3)NC(=O)[C@H](CC(=O)O)NC(=O)CNC(=O)[C@H](CCCNC(=N)N)NC2=O)NC(=O)CNC(=O)[C@@H]2CCCN2C(=O)[C@H](CCCCNC(=O)CO/N=C/C(=O)NCCCC[C@@H]2NC(=O)[C@@H](Cc3ccccc3)NC(=O)[C@H](CC(=O)O)NC(=O)CNC(=O)[C@H](CCCNC(=N)N)NC2=O)NC(=O)[C@H](CCCCNC(=O)[C@H](CCCCN)NC(=O)[C@H](Cc2ccccc2)NC(=O)CNC(=O)CN2CCCNCCNCCCNCC2)NC(=O)[C@H](CCCCNC(=O)CO/N=C/C(=O)NCCCC[C@@H]2NC(=O)[C@@H](Cc3ccccc3)NC(=O)[C@H](CC(=O)O)NC(=O)CNC(=O)[C@H](CCCNC(=N)N)NC2=O)NC(=O)CNC(=O)[C@@H]2CCCN2C(=O)[C@H](CCCCNC(=O)CO/N=C/C(=O)NCCCC[C@@H]2NC(=O)[C@@H](Cc3ccccc3)NC(=O)[C@H](CC(=O)O)NC(=O)CNC(=O)[C@H](CCCNC(=N)N)NC2=O)NC1=O [copper-64 labelled]		normal mice, stomach	intravenous, 0.74 MBq, 24 h post-injection		tissue uptake	0.7 ± 0.19 %ID/g
COc1ccc2[nH]c([S+]([O-])Cc3ncc(C)c(OC)c3C)nc2c1 (stereo not shown)		healthy Chinese volunteers, plasma	oral, 20 mg, fed, CYP2C19 intermediate metabolizers		Cmax	337 ± 281 ng/mL
N=C(CC(O)c1cc2c(F)cc(F)cc2c2cc(C(F)(F)F)ccc12)Nc1ccc(Br)cc1 (stereo not shown)		human blood	2.5 ng/mL, 30 min		blood-to-plasma ratio	0.93 ± 0.06
C=CC(=O)N1CC[C@H](n2nc(C#Cc3cc(OC)cc(OC)c3)c3c(N)ncnc32)C1		human patients	oral, dose not given, QD regimen, adverse drug reaction, with: lanthanum carbonate hydrate		any adverse drug reaction, any grade	100%
COc1cc2c(Oc3ccc4[nH]c(C)cc4c3F)ccnc2cc1OCC1(N)CC1		paediatric recurrent refractory sarcoma	8 mg		grade 1 or 2 weight loss	25%
O=c1cc(-c2ccc(O)c(O)c2)oc2cc(O)cc(O)c12		Sprague-Dawley rat, male, lean, urine	oral, 100 mg/kg of neohesperidin, 48 h, after β-glucuronidase/sulfatase, total		amount excreted in urine	92.9 ± 32.2 ng
COc1ccc(CCC2CCCC(CCc3ccc(OC)cc3)N2C[C@@H](O)CO)cc1.Cl (stereo in doubt)		rabbit Purkinje fibres	0.3 µM, cycle length 1 s	relative to: baseline	APD90 change	33.9 ± 4.8%
COc1ncccc1-c1cnn2ccc(N3CCN(C(=O)OC(C)C)CC3)nc12		mouse nerve ligation model, plasma	oral, 3 mg/kg, 120 min after last dose, repeat dosing day 1		drug concentration	510 nM

Excerpt of the above:
Compound	assay	system	setting	how to read	quantity	result
CC1CC(c2ccc(S(N)(=O)=O)cc2)=NN1c1ccc(C#N)c(Cl)c1 (stereo not shown)		PBS	90 min		kinetic solubility	< 1 µM
